Published values collected from several papers.
Every numbered part comes from another study and shows a few of its results, in no order. “And” joins repeats or separate records; there may be more than shown.
Chain of UniProt P53350 (whole entry, looked up): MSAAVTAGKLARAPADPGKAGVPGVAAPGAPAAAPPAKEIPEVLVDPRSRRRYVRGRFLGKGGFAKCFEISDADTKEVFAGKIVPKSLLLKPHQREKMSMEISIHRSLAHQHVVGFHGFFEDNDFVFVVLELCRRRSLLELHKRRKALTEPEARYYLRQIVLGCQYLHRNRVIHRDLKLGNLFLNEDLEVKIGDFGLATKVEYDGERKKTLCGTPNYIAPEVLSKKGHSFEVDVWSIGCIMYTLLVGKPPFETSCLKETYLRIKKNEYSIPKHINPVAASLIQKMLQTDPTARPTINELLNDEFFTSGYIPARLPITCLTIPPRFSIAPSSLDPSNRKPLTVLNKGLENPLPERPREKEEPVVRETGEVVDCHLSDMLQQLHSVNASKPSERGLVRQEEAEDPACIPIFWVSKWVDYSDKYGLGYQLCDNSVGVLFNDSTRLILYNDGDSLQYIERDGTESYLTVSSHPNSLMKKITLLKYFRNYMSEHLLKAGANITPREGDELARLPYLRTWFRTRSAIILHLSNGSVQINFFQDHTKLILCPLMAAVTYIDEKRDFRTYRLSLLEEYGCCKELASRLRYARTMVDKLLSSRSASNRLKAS

Sample 1
SMILES: CC[C@@]1(c2ccccc2)C2=C(CC(C)(C)CC2=O)Nc2n[nH]cc21
Tested at: 1 µM
| target | effect on | technique | baseline | remaining binding [%] |
| --- | --- | --- | --- | --- |
| Inhibitor of nuclear factor kappa-B kinase subunit beta (IKBKB, Homo sapiens, UniProt O14920) | kinase binding | KINOMEscan | DMSO control | 100 |
| Serine/threonine-protein kinase Nek3 (NEK3, Homo sapiens, UniProt P51956) | kinase binding | KINOMEscan | DMSO control | 84 |
| Fibroblast growth factor receptor 3 (FGFR3, Homo sapiens, UniProt P22607, G697C) | binding | competition with immobilised ligand |  | 100 |
| Interleukin-1 receptor-associated kinase 3 (IRAK3, Homo sapiens, UniProt Q9Y616) | kinase binding | KINOMEscan | DMSO control | 96 |
| Cyclin-dependent kinase 3 (CDK3, Homo sapiens, UniProt Q00526) | kinase binding | KINOMEscan | DMSO control | 99 |
| Ephrin type-A receptor 3 (EPHA3, Homo sapiens, UniProt P29320) | kinase binding | KINOMEscan | DMSO control | 60 |
| Epidermal growth factor receptor (EGFR, Homo sapiens, UniProt P00533, G719C) | kinase binding | KINOMEscan | DMSO control | 100 |
| ALK tyrosine kinase receptor (ALK, Homo sapiens, UniProt Q9UM73) | binding | competition with immobilised ligand |  | 79 |
| Cyclin-dependent kinase 13 (CDK13, Homo sapiens, UniProt Q14004) | binding | competition with immobilised ligand |  | 77 |
| Serine/threonine-protein kinase 26 (STK26, Homo sapiens, UniProt Q9P289) | kinase binding | KINOMEscan | DMSO control | 100 |
| Activated CDC42 kinase 1 (TNK2, Homo sapiens, UniProt Q07912) | binding | competition with immobilised ligand |  | 99 |
| Dual specificity protein kinase CLK3 (CLK3, Homo sapiens, UniProt P49761) | binding | competition with immobilised ligand |  | 97 |
| MAP kinase-interacting serine/threonine-protein kinase 2 (MKNK2, Homo sapiens, UniProt Q9HBH9) | binding | competition with immobilised ligand |  | 100 |
| Cyclin-dependent kinase 17 (CDK17, Homo sapiens, UniProt Q00537) | kinase binding | KINOMEscan | DMSO control | 86 |
| Myosin light chain kinase 2, skeletal/cardiac muscle (MYLK2, Homo sapiens, UniProt Q9H1R3) | binding | competition with immobilised ligand |  | 100 |
| TGF-beta receptor type-1 (TGFBR1, Homo sapiens, UniProt P36897) | binding | competition with immobilised ligand |  | 98 |
| Phosphatidylinositol 4-kinase beta (PI4KB, Homo sapiens, UniProt Q9UBF8) | binding | competition with immobilised ligand |  | 94 |
| Interleukin-1 receptor-associated kinase 1 (IRAK1, Homo sapiens, UniProt P51617) | kinase binding | KINOMEscan | DMSO control | 97 |
| Serine/threonine-protein kinase PLK1 (PLK1, Homo sapiens, UniProt P53350) | binding | competition with immobilised ligand |  | 100 |
| Dual specificity mitogen-activated protein kinase kinase 3 (MAP2K3, Homo sapiens, UniProt P46734) | kinase binding | KINOMEscan | DMSO control | 88 |
| Epidermal growth factor receptor (EGFR, Homo sapiens, UniProt P00533, del747-752/P753S) | binding | competition with immobilised ligand |  | 79 |
| 5'-AMP-activated protein kinase catalytic subunit alpha-2 (PRKAA2, Homo sapiens, UniProt P54646) | kinase binding | KINOMEscan | DMSO control | 91 |
| Homeodomain-interacting protein kinase 2 (HIPK2, Homo sapiens, UniProt Q9H2X6) | binding | competition with immobilised ligand |  | 78 |

Sample 2
Target: Cyclin-dependent kinase 12, with cyclin K (CDK12, Homo sapiens, UniProt Q9NYV4)
Chain of UniProt Q9NYV4 (whole entry, looked up): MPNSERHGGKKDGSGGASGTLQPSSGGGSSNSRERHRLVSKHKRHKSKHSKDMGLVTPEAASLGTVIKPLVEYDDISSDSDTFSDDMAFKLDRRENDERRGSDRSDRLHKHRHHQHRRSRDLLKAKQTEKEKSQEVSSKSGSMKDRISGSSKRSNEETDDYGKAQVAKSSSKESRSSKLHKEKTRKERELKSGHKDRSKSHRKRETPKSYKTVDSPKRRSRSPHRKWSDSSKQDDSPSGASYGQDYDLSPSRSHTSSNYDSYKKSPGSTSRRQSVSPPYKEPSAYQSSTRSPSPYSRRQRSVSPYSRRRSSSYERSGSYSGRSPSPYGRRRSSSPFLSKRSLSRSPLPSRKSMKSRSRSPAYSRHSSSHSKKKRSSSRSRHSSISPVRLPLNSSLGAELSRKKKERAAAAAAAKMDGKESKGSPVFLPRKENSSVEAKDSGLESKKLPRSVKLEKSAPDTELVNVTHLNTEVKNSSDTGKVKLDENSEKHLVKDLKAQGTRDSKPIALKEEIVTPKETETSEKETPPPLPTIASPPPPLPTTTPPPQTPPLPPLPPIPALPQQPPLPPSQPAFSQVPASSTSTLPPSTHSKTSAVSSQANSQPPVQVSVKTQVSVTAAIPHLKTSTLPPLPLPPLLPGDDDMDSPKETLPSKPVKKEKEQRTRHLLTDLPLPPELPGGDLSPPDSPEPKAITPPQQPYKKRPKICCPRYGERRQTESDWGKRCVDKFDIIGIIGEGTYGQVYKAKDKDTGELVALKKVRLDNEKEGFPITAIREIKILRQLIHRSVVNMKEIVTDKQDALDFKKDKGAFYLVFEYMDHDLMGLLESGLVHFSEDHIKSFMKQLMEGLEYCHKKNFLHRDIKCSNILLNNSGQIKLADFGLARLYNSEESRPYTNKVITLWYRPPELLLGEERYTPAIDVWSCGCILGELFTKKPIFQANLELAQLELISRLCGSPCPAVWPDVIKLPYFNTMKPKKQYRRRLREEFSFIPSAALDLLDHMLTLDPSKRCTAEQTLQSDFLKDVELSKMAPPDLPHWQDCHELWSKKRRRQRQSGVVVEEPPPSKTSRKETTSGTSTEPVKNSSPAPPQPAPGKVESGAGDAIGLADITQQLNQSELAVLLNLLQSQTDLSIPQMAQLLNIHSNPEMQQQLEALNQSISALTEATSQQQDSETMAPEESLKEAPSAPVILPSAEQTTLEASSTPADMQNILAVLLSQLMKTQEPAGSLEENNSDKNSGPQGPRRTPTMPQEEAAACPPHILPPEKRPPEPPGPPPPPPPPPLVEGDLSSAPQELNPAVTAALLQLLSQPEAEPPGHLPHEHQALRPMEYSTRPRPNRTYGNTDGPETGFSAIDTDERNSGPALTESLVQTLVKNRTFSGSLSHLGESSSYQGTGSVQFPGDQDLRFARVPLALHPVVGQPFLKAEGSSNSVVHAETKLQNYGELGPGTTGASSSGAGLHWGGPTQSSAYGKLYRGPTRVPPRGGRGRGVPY
Effect on: kinase activity
Action: inhibitor
Technique: ADP-Glo
Tested at: 0.0027 µM
| Structure (SMILES) | inhibition [%] |
| --- | --- |
| CCn1cnc2c(NCc3nc4cc(Cl)c(Cl)cc4[nH]3)nc(N3CCN(C(=O)c4cccnc4)CC3)nc21 | -14.4 |
| CCn1cnc2c(NCc3nc4cc(Cl)c(Cl)cc4[nH]3)nc(N3CCC(NC(C)=O)CC3)nc21 | -6.5 |
| CC(=O)N1CCN(c2nc(NCc3nc4cc(Cl)c(Cl)cc4[nH]3)c3ncn(C(C)C)c3n2)CC1 | -4 |
| CCn1cnc2c(NCc3nc4cc(F)c(F)cc4[nH]3)nc(N3CCn4ncnc4C3)nc21 | 8.4 |
| CCn1cnc2c(NCc3nc4ccc(F)c(F)c4[nH]3)nc(N3CCn4ncnc4C3)nc21 | 8 |
| CCn1cnc2c(NCc3nc4cc(Cl)c(Cl)cc4[nH]3)nc(N3CCn4ncnc4C3)nc21 | 15.5 |
| CCn1cnc2c(NCc3nc4cc(Cl)c(Cl)cc4[nH]3)nc(N3CCN(C(=O)c4ccncc4)CC3)nc21 | 2.6 |
| CCn1cnc2c(NCc3nc4cc(Cl)c(Cl)cc4[nH]3)nc(N3CCN(C(=O)[C@H](C)NC(C)=O)CC3)nc21 | -16.1 |
| CCn1cnc2c(NCc3nc4cc(Cl)c(Cl)cc4[nH]3)nc(N3CCN(c4ccccn4)CC3)nc21 | 3.7 |
| CCn1cnc2c(NCc3nc4cc(Cl)c(Cl)cc4[nH]3)nc(N3CCN(C(=O)c4ccccn4)CC3)nc21 | -0.2 |

Sample 3
Structure (SMILES): C=C(CN)COc1cccc(Cn2c(=S)[nH]c(=O)c3[nH]cnc32)c1
MPO: Myeloperoxidase (MPO, Homo sapiens, UniProt P05164)
Chain of UniProt P05164 (whole entry, looked up): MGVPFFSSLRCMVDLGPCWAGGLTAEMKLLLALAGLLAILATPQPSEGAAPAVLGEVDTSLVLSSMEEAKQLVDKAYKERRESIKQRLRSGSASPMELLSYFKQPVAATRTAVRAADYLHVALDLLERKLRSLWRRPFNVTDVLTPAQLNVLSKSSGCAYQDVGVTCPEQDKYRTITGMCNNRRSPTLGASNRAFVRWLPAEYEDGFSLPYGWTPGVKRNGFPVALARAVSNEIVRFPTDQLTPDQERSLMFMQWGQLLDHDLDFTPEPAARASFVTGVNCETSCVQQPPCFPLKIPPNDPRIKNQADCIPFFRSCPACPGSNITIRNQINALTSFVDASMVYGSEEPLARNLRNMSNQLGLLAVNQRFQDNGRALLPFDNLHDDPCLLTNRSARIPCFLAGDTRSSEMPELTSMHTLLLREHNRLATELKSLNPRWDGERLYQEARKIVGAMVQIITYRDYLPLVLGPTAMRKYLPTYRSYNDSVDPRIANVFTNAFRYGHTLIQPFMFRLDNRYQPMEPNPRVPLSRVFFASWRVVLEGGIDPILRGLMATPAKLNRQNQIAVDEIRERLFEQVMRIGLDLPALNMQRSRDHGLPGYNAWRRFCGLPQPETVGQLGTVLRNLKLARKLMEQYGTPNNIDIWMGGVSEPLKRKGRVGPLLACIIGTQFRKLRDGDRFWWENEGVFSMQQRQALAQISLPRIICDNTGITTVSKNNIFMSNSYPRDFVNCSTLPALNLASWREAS
AOC3: Amine oxidase [copper-containing] 3 (AOC3, Homo sapiens, UniProt Q16853)
Chain of UniProt Q16853 (whole entry, looked up): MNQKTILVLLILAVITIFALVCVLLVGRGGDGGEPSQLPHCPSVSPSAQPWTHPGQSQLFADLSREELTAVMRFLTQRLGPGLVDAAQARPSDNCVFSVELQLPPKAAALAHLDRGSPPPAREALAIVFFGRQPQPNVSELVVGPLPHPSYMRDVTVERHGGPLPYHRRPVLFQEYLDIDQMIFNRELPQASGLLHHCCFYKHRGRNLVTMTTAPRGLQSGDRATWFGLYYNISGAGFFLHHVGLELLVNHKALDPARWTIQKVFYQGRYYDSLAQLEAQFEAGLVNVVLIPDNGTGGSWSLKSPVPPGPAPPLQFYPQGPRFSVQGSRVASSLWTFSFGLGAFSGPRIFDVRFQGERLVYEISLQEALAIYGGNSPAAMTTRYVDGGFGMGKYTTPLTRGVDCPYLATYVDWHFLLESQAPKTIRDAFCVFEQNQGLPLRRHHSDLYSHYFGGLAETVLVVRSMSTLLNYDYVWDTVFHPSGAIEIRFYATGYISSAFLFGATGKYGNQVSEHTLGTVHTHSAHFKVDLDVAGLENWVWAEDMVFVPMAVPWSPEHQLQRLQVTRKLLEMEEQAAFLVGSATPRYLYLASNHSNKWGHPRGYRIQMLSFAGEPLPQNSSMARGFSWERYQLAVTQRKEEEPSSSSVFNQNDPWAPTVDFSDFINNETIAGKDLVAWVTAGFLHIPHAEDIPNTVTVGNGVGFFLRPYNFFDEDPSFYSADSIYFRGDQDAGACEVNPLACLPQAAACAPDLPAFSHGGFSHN
| target | effect on | action | technique | tested at | setting | inhibition |
| --- | --- | --- | --- | --- | --- | --- |
| MPO | enzyme activity |  |  | 0.0015 µM |  | 9.07% and 2.58% |
| AOC3 | enzyme activity |  | Amplex Red H2O2 production | 10 µM |  | 93.5% |
| MPO | enzyme activity | inhibitor | fluorescence | 37 nM |  | 66.4% |
| MPO | enzyme activity |  |  | 0.1235 µM |  | 93.6% and 94.8% |
| AOC3 | enzyme activity |  | Amplex Red H2O2 production | 0.0005 µM | mean value | 2.76% |
| AOC3 | H2O2 production | inhibitor | Amplex Red | 0.3704 µM |  | 16.6 % Inhibition |
| AOC3 | H2O2 production | inhibitor | Amplex Red | 1.111 µM |  | 36 % Inhibition |
| AOC3 | enzyme activity |  | Amplex Red H2O2 production | 0.0046 µM | mean value | 1.71% |
| MPO | enzyme activity |  |  | 0.0046 µM |  | 19.5% and 28.4% |
| AOC3 | enzyme activity |  | Amplex Red H2O2 production | 30 µM |  | 97.2% |
| MPO | enzyme activity | inhibitor | fluorescence | 10 µM |  | 100% |
| AOC3 | enzyme activity |  | Amplex Red H2O2 production | 0.0412 µM | mean value | 10.2% |
| AOC3 | enzyme activity |  | Amplex Red H2O2 production | 1.111 µM | mean value | 42% |

Sample 4
Compound: C[C@@H]1CN(c2ccc(-c3cc(C(=O)NCCOCCOCCOCCOCCNC(=O)Cn4cc(-c5[nH]cc(C(=O)N[C@@H](CC(N)=O)c6ccc(F)c(Cl)c6)c5-c5ccc(Cl)cc5F)cn4)ccc3F)cc2NC(=O)c2c[nH]c(=O)cc2C(F)(F)F)C[C@H](C)N1C
Effect on: thermal unfolding
Technique: differential scanning fluorimetry
Tested at: 5.5 µM
Reading: higher = more unfolded
DCAF1: DDB1- and CUL4-associated factor 1 (DCAF1, Homo sapiens, UniProt Q9Y4B6)
Chain of UniProt Q9Y4B6 (whole entry, looked up): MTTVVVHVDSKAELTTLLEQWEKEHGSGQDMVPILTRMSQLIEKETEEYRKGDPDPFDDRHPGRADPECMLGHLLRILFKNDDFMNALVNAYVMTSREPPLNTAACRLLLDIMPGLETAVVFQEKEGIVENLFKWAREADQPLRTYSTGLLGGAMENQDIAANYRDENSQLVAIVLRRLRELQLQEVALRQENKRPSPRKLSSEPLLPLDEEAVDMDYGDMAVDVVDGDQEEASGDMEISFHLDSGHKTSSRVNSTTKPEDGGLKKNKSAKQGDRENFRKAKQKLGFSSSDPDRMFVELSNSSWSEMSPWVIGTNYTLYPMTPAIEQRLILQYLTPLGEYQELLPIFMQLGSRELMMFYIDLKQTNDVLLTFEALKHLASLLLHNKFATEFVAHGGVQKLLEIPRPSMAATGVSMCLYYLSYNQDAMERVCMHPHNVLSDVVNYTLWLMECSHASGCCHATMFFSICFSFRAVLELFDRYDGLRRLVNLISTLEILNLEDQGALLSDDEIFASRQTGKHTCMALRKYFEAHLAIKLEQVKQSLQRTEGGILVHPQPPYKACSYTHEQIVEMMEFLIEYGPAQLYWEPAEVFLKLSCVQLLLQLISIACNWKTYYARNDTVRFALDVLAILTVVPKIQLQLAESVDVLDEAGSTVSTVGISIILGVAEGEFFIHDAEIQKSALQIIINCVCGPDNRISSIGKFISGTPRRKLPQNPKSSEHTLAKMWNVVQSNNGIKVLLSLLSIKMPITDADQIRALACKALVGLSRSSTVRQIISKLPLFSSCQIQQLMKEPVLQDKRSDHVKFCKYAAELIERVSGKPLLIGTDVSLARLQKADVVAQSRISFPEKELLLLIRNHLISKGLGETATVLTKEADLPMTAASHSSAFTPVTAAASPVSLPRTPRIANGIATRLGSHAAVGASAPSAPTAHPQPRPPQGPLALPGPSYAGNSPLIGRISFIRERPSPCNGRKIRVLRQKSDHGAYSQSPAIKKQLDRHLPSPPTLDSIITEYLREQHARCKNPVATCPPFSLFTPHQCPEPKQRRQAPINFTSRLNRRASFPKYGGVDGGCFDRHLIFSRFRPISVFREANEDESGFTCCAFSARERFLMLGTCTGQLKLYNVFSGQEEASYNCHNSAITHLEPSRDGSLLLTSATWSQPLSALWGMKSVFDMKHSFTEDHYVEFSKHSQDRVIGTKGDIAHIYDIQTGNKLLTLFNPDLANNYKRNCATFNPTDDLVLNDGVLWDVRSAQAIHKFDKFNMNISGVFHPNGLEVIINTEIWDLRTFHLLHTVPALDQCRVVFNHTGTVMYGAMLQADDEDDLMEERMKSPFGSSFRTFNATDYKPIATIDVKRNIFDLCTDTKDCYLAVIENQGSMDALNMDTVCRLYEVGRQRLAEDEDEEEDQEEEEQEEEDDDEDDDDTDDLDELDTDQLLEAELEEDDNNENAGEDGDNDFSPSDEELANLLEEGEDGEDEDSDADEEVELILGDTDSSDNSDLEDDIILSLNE
| target | temperature | SYPRO Orange fluorescence [a.u.] |
| --- | --- | --- |
| DCAF1 | 81.21 °C | 43200 |
| DCAF1 | 32.6 °C | 8260 |
| DCAF1 | 62.21 °C | 48600 |
| DCAF1 | 91.01 °C | 34100 |
| WD repeat-containing protein 5 (WDR5, Homo sapiens, UniProt P61964) | 42 °C | 14200 |
| DCAF1 | 52.81 °C | 16400 |
| DCAF1 | 41.8 °C | 11000 |

Excerpt of the above (sample 2):
| Structure (SMILES) | inhibition [%] |
| --- | --- |
| CC(=O)N1CCN(c2nc(NCc3nc4cc(Cl)c(Cl)cc4[nH]3)c3ncn(C(C)C)c3n2)CC1 | -4 |
| CCn1cnc2c(NCc3nc4cc(F)c(F)cc4[nH]3)nc(N3CCn4ncnc4C3)nc21 | 8.4 |
| CCn1cnc2c(NCc3nc4ccc(F)c(F)c4[nH]3)nc(N3CCn4ncnc4C3)nc21 | 8 |
| CCn1cnc2c(NCc3nc4cc(Cl)c(Cl)cc4[nH]3)nc(N3CCn4ncnc4C3)nc21 | 15.5 |
| CCn1cnc2c(NCc3nc4cc(Cl)c(Cl)cc4[nH]3)nc(N3CCN(C(=O)c4ccncc4)CC3)nc21 | 2.6 |
| CCn1cnc2c(NCc3nc4cc(Cl)c(Cl)cc4[nH]3)nc(N3CCN(C(=O)[C@H](C)NC(C)=O)CC3)nc21 | -16.1 |
| CCn1cnc2c(NCc3nc4cc(Cl)c(Cl)cc4[nH]3)nc(N3CCN(c4ccccn4)CC3)nc21 | 3.7 |
| CCn1cnc2c(NCc3nc4cc(Cl)c(Cl)cc4[nH]3)nc(N3CCN(C(=O)c4ccccn4)CC3)nc21 | -0.2 |
